Published values collected from several papers.
Compare with care: the assays were run in different laboratories. ± marks the error that the study gave.

C[n+]1ccc(/C=N/NC(=O)N/N=C/c2cc[n+](C)cc2)cc1 — ΔTm (MYC parallel G4 DNA; FRET melting; 1 µM, DNA 0.2 µM, together with: duplex DNA competitor 10 µM): 3.2 ± 0.3 °C
COC1CN([C@H]2CC[C@H]([C@@]3(C)Oc4c(Cl)cc(C(=O)NCc5c(SC)cc(C)[nH]c5=O)c(C)c4O3)CC2)C1 — log2 fold change (RNA-seq, item: AJUBA; human, whole blood; dose not given, 24 h; relative to: pretreatment baseline): 1.34
CC[n+]1cccc2cc(/C=N/NC(=O)c3cncc(C(=O)N/N=C/c4ccc5c(ccc[n+]5CC)c4)n3)ccc21 — ΔTm (MYC parallel G4 DNA; FRET melting; 1 µM, DNA 0.2 µM): 8.8 ± 0.2 °C
C=CC(=O)N1[C@@H](c2ccc3c(c2)OCO3)c2[nH]c3ccccc3c2C[C@H]1C(=O)N1CCN(C)CC1 — relative co-enrichment (human cyclin E1 wild type-3xFLAG:CDK2; co-IP with TMT proteomics, item: RPS14; concentration not given, P62263; relative to: wild type DMSO): 83%
C=CC(=O)Nc1cccc(Cn2ncc3cnc(Nc4cnn(CCOC)c4)nc32)c1 — percent of control (AURKC human; binding, KINOMEscan; 100 nM; lower = stronger binding): 0.55%
Cc1ncsc1-c1ccc(C(C)NC(=O)C2CC(O)CN2C(=O)C(NC(=O)CCCCCCCCCCN2CCCC(Nc3ncc(Cl)c(Nc4ccccc4S(=O)(=O)C(C)C)n3)C2)C(C)(C)C)cc1 (stereo not drawn) — log2 fold change (22Rv1; RNA-seq, item: TJP3 mRNA; concentration not given; relative to: DMSO): -1.06
Nc1ncc(-c2cc(-c3cnn(CC(F)(F)F)c3)ncc2F)nc1C(=O)NC1CNCC(F)C1 (stereo not drawn) — remaining binding (KIT-autoinhibited; KINOMEscan competition binding; 1 µM; relative to: DMSO control): 81%
CC[n+]1cccc2cc(/C=N/NC(=O)C(=O)N/N=C/c3ccc4c(ccc[n+]4CC)c3)ccc21 — ΔTm (hp2 hairpin duplex DNA; FRET melting; 1 µM, together with: ds26 10 µM): 1 ± 0.3 °C
CNS(=O)(=O)Nc1nccc(Cc2c(C)c3ccc(Oc4ncccc4F)cc3oc2=O)c1F — IC50 (SNU-387; cell viability; 7 days): 713 nM
